{"data": "Literature values that unrelated publications cite", "note": "Each line is one published result; not all experiments were run side by side. ± gives the spread as reported.", "sequence of UniProt Q13188 (whole entry, looked up)": "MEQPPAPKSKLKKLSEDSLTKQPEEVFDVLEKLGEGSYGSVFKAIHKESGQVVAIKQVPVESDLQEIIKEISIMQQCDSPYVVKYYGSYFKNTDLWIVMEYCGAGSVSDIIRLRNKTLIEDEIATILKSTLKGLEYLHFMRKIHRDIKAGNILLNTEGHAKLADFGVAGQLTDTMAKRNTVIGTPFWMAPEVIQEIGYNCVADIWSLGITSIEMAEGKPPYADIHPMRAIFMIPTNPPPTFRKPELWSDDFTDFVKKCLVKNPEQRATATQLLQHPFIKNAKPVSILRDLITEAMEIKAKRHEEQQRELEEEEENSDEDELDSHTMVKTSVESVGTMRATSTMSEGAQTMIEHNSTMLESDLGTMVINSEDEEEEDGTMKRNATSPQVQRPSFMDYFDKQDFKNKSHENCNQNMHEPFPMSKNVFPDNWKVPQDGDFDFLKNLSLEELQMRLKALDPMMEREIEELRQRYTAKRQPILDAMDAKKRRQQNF", "sequence of UniProt O00329 (whole entry, looked up)": "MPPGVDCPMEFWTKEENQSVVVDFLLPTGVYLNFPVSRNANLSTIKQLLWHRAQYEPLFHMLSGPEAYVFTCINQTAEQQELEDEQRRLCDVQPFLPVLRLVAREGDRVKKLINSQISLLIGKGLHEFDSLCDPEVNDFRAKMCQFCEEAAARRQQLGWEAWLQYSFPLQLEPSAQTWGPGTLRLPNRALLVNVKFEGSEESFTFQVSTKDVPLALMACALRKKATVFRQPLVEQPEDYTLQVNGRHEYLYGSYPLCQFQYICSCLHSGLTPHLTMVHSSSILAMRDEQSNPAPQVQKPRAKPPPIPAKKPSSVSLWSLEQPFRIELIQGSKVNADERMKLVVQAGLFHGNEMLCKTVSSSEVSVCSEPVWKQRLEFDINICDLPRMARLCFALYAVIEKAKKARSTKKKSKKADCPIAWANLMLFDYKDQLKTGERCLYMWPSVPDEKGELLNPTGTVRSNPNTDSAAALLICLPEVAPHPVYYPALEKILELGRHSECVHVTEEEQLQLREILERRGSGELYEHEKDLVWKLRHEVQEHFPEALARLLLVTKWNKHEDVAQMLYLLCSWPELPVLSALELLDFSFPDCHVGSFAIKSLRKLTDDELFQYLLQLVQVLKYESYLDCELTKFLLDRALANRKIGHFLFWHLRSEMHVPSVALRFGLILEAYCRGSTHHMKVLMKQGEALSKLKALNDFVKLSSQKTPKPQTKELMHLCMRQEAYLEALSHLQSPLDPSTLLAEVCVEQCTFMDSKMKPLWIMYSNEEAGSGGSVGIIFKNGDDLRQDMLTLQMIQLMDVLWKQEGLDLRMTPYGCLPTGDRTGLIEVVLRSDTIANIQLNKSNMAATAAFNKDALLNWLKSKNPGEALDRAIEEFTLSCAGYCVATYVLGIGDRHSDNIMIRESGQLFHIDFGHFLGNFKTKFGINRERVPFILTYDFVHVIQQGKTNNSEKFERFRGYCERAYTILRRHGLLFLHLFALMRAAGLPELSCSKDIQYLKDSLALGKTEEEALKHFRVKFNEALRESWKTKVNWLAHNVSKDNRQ", "sequence of UniProt Q9NR22 (whole entry, looked up)": "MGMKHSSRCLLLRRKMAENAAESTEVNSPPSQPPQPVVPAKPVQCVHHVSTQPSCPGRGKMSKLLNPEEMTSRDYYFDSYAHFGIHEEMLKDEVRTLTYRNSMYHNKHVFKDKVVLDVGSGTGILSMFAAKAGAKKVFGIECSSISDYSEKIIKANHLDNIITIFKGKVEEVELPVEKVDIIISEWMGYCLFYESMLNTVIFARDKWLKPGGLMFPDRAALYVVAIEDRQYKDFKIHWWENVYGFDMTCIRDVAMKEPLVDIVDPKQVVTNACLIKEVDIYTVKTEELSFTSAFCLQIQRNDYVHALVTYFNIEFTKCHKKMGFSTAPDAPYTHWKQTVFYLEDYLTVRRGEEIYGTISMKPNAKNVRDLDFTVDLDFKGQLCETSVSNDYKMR", "sequence of UniProt P42336 (whole entry, unmodified, looked up)": "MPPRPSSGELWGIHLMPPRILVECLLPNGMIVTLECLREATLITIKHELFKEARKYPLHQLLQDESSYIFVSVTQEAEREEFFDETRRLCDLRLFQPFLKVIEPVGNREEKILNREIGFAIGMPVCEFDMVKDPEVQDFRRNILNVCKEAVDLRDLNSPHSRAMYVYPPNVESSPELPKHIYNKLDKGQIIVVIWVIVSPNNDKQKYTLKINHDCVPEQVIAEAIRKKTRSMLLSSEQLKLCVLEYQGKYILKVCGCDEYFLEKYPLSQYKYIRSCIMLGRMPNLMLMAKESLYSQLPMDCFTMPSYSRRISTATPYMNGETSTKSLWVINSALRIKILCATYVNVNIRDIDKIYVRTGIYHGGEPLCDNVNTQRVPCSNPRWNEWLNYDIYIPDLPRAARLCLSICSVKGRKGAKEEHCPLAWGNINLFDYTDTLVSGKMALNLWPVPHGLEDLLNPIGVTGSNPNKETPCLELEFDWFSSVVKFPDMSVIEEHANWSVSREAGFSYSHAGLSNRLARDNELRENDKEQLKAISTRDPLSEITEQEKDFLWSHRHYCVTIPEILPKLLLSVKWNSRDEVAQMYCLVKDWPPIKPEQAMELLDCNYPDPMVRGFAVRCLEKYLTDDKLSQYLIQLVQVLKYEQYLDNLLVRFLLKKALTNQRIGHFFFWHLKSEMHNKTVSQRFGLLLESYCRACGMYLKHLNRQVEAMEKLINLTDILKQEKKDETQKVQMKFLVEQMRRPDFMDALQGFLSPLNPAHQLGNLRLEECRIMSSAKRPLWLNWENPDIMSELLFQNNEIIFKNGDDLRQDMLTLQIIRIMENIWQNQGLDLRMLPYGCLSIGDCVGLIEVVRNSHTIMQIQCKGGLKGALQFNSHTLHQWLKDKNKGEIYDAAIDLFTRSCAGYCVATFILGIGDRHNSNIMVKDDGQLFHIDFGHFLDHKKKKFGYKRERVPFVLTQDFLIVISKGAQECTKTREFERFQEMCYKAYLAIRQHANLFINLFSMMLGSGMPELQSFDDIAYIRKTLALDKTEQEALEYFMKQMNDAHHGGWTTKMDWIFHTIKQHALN"}
{"Compound": "CCCC(CCC)C(=O)O", "tested on": "CALUX reporter cell lines", "assay": "reporter gene", "conditions": "cell-total, maximum across", "quantity": "EC10", "result": "110000 nM"}
{"Compound": "C[C@@H](O)[C@@H]1NC(=O)[C@H](CCCCN)NC(=O)[C@@H](Cc2c[nH]c3ccccc23)NC(=O)[C@H](Cc2ccc(O)cc2)NC(=O)[C@H](NC(=O)[C@H](Cc2ccc([N+](=O)[O-])cc2)NC(=O)CN2CCCN3CCN(CCCN(CC(=O)O)CC3)CC2)CSSC[C@@H](C(=O)N[C@H](Cc2ccc(O)cc2)C(N)=O)NC1=O [copper-64 labelled]", "tested on": "AR-42J rat pancreatic tumour cells", "assay": "receptor binding", "scale": "relative to: antagonist over agonist", "quantity": "Bmax ratio", "result": "> 14 fold"}
{"Compound": "CCOC(=O)c1nn(-c2ccccc2)c(C#N)c1NC(=O)c1nn(CC)cc1Br", "tested on": "human monocytes", "assay": "phagocytosis of anti-D RBCs", "conditions": "5 µM, commercial sample", "quantity": "inhibition", "result": "> 69%"}
{"Compound": "CC(F)(F)c1cc(F)ccc1-c1sc2cc(O)ccc2c1Oc1ccc(/C=C/C(=O)O)cc1", "tested on": "MDA-MB-468", "conditions": "10 µM", "quantity": "cell growth", "result": "no effect"}
{"Compound": "C=CC(=O)N1CCC(C(=O)NCC(=O)N2CCN(c3nc(-c4cnc(N)nc4C(F)F)nc(N4CCOCC4)n3)CC2)CC1", "tested on": "PIK3CA (Homo sapiens, UniProt P42336, E542K)", "assay": "kinase activity", "conditions": "1 µM", "quantity": "remaining activity", "result": "0%"}
{"Compound": "Cc1cc(NC(=O)c2cccc(NC(=O)/C=C/CN(C)C)c2)ccc1Nc1nccc(-c2cccnc2)n1", "tested on": "STK3 (Homo sapiens, UniProt Q13188)", "assay": "enzyme activity, inhibitor", "conditions": "1 µM", "scale": "relative to: vehicle", "quantity": "remaining activity", "result": "48%"}
{"Compound": "CCCN(CCC)S(=O)(=O)c1ccc(C(=O)O)cc1", "assay": "substrate uptake, inhibitor", "system": "human kidney slices", "conditions": "15 min, together with: adefovir 0.1 µM", "quantity": "Ki", "result": "12600 nM"}
{"Compound": "Nc1cc(C(F)(F)F)c(-c2nc(N3CCOCC3)nc(N3CCOCC3)n2)cn1", "tested on": "AU565", "quantity": "GI50", "result": "320 nM"}
{"Compound": "CNC(C)C1CCC(N)C(OC2C(N)CC(N)C(OC3OCC(C)(O)C(NC)C3O)C2O)O1 (stereo not drawn)", "tested on": "Pseudomonas aeruginosa", "system": "clinical isolate RKI-No_462/13", "quantity": "MIC", "result": "4 µg/mL"}
{"Compound": "C=CCCC(=O)O", "tested on": "CALUX reporter cell lines", "assay": "reporter gene", "conditions": "cell-total, maximum across", "quantity": "EC10", "result": "76000 nM"}
{"Compound": "CC1(C)S[C@@H]2[C@H](NC(=O)[C@H](N)c3ccccc3)C(=O)N2[C@H]1C(=O)O", "tested on": "Pseudomonas aeruginosa", "system": "clinical isolate RKI-No_25/14", "quantity": "MIC", "result": "> 16 µg/mL"}
{"Compound": "COC(=O)CC1CCN(C(=O)c2cc(-c3cccs3)nn2-c2ccccc2)CC1", "tested on": "human monocytes", "assay": "phagocytosis of anti-D RBCs", "conditions": "5 µM, commercial sample", "quantity": "inhibition", "result": "> 69%"}
{"Compound": "O=c1[nH]c(=O)n([C@@H]2O[C@H](CO)[C@@H](O)[C@@H]2F)cc1[125I]", "tested on": "RG2 expressing HSV1-tk", "conditions": "2 h", "scale": "relative to: HSV1-tk over wild-type RG2", "quantity": "uptake selectivity ratio", "result": "9.9 ± 4.6"}
{"Compound": "Nc1ccc(/C=C/C(=O)NCc2cc3cc(-c4ccc(C(=O)N5CCC(F)(F)CC5)cc4)cc(-c4ccc(F)cc4)c3o2)cn1", "tested on": "CAKI-1", "assay": "cell viability", "quantity": "EC50", "result": "600 nM"}
{"Compound": "COc1ccccc1Oc1cccc(CN2CCC(NC(=O)C3CC(=O)Nc4ccccc43)CC2)c1 (stereo not drawn)", "tested on": "human CCR8 L258A mutant (TM6)", "assay": "IP accumulation, agonist", "quantity": "EC50", "result": "39 nM"}
{"Compound": "C[C@H]1COCCN1c1nc(-c2cnc(N)cc2C(F)F)nc(N2CCOCC2)n1", "tested on": "CAL-27", "quantity": "GI50", "result": "349 nM"}
{"Compound": "CCCC(C)C(=O)O (stereo not drawn)", "tested on": "CALUX reporter cell lines", "assay": "reporter gene", "conditions": "cell-total, minimum across", "quantity": "EC10", "result": "41000 nM"}
{"Compound": "Cc1nc(NC(=O)N2CCC[C@H]2C(N)=O)sc1-c1ccnc(C(C)(C)C(F)(F)F)c1", "tested on": "PIK3CD (Homo sapiens, UniProt O00329)", "assay": "KinomeScan competition binding", "conditions": "10 µM", "quantity": "remaining binding", "result": "0.15%"}
{"Compound": "C/C=C/C[C@H](C)[C@@H](OC)[C@@H](C)[C@H](O)C[C@H]1OC(=O)C=C[C@H]1CC", "tested on": "normal lung fibroblasts", "conditions": "concentration not given", "quantity": "activity", "result": "inactive"}
{"Compound": "Cc1ncccc1NC(=O)c1ccc2c(c1)CC[C@@H]1C[C@@](O)(C(F)(F)F)CC[C@@]21Cc1ccccc1", "tested on": "A549", "assay": "IL-6 release", "conditions": "concentration not given", "quantity": "inhibition", "result": "60 to 80%"}
{"Compound": "COc1ccccc1Oc1cccc(CN2CCC3(CC2)C(=O)NCN3CCc2ccccc2)c1", "tested on": "human CCR8 F84A mutant (TM2)", "assay": "IP accumulation, agonist", "quantity": "EC50", "result": "14 nM"}
{"Compound": "CO[C@]1(C(=O)N[C@@H](C)c2ccc(-n3cc(F)cn3)nc2)CC[C@H](c2nc(C)cc(Nc3cc(C)[nH]n3)n2)CC1", "tested on": "TT (RET C634W)", "assay": "cell growth", "quantity": "GI50", "result": "15 nM"}
{"Compound": "CCCCCC(CCC)C(=O)O (stereo not drawn)", "tested on": "CALUX reporter cell lines", "assay": "reporter gene", "conditions": "cell-total, minimum across", "quantity": "EC10", "result": "3000 nM"}
{"Compound": "O=c1[nH]c(=O)n([C@H]2C[C@H](O)[C@@H](CO)O2)cc1CCCC[18F]", "tested on": "RG2 expressing HSV1-tk", "conditions": "2 h", "scale": "relative to: HSV1-tk over wild-type RG2", "quantity": "uptake selectivity ratio", "result": "14.9 ± 4"}
{"Compound": "CC(C)(C)c1nc(-c2cccc(NS(=O)(=O)c3c(F)cccc3F)c2F)c(-c2ccnc(N)n2)s1", "tested on": "melanoma cell line", "assay": "colony formation", "quantity": "EC50", "result": "9.5 nM"}
{"Compound": "O=c1[nH]c(=O)n([C@H]2C[C@H](O)[C@@H](CO)O2)cc1CCCCC[18F]", "tested on": "RG2 expressing HSV1-tk", "conditions": "2 h", "scale": "relative to: HSV1-tk over wild-type RG2", "quantity": "uptake selectivity ratio", "result": "19.9 ± 6.9"}
{"Compound": "CN(C)c1ccc(C(=O)N(CC(=O)NCc2ccccc2)Cc2ccc(C(=O)Nc3ccccc3N)cc2)cc1", "tested on": "CAL-27", "assay": "cellular HDAC activity, inhibitor", "conditions": "together with: Boc-Lys(ε-Ac)-AMC substrate", "quantity": "IC50", "result": "327 ± 33 nM"}
{"Compound": "CCCC(C)(C)C(=O)O", "tested on": "CALUX reporter cell lines", "assay": "reporter gene", "conditions": "cell-total, maximum across", "quantity": "EC10", "result": "38000 nM"}
{"Compound": "NC(=S)NN=Cc1ncccc1N", "tested on": "human cervical cancer cells", "conditions": "concentration not given, clinically attainable concentrations and times, together with: cisplatin plus radiation", "quantity": "cell survival", "result": "10%"}
{"Compound": "Cc1ncccc1NC(=O)c1ccc2c(c1)C(=O)C[C@@H]1C[C@@](O)(c3ccccc3)[C@H](O)C[C@@]21Cc1ccccc1", "tested on": "A549", "assay": "TNF-alpha release", "conditions": "concentration not given", "quantity": "inhibition", "result": "60 to 80%"}
{"Compound": "C=CCC(CCC)C(=O)O (stereo not drawn)", "tested on": "CALUX reporter cell lines", "assay": "reporter gene", "conditions": "cell-total, maximum across", "quantity": "EC10", "result": "110000 nM"}
{"Compound": "Cc1c(C#N)cccc1[C@@H](C)Nc1nnc(C)c2cnc(N3CCOCC3)cc12", "tested on": "DLD-1", "assay": "ERK phosphorylation, In-Cell Western, measured: phospho-ERK", "quantity": "IC50", "result": "23.3 ± 14.6 nM"}
{"Compound": "CCCCC(CC)C(=O)O (stereo not drawn)", "tested on": "CALUX reporter cell lines", "assay": "reporter gene", "conditions": "cell-total, minimum across", "quantity": "EC10", "result": "7000 nM"}
{"Compound": "CCN(c1cc(-c2ccc(CN3CCOCC3)cc2)cc(C(=O)NCc2c(C)cc(C)[nH]c2=O)c1C)C1CCOCC1", "tested on": "PRMT8 (Homo sapiens, UniProt Q9NR22)", "assay": "enzyme activity, inhibitor", "conditions": "1 µM", "quantity": "inhibition", "result": "7 ± 3%"}
{"Compound": "CCC(CC)C(=O)O", "tested on": "CALUX reporter cell lines", "assay": "reporter gene", "conditions": "cell-total, maximum across", "quantity": "EC10", "result": "41000 nM"}
{"Compound": "Nc1cccc2c1C(=O)N(C1CCC(=O)NC1=O)C2=O (stereo not drawn)", "tested on": "T cells", "assay": "T-cell co-stimulation", "scale": "relative to: over lenalidomide", "quantity": "relative potency", "result": "10 fold"}
{"note": "A few entries again:"}
{"Compound": "CN(C)c1ccc(C(=O)N(CC(=O)NCc2ccccc2)Cc2ccc(C(=O)Nc3ccccc3N)cc2)cc1", "tested on": "CAL-27", "assay": "cellular HDAC activity, inhibitor", "conditions": "together with: Boc-Lys(ε-Ac)-AMC substrate", "quantity": "IC50", "result": "327 ± 33 nM"}
{"Compound": "CCCC(C)(C)C(=O)O", "tested on": "CALUX reporter cell lines", "assay": "reporter gene", "conditions": "cell-total, maximum across", "quantity": "EC10", "result": "38000 nM"}
{"Compound": "NC(=S)NN=Cc1ncccc1N", "tested on": "human cervical cancer cells", "conditions": "concentration not given, clinically attainable concentrations and times, together with: cisplatin plus radiation", "quantity": "cell survival", "result": "10%"}
{"Compound": "Cc1ncccc1NC(=O)c1ccc2c(c1)C(=O)C[C@@H]1C[C@@](O)(c3ccccc3)[C@H](O)C[C@@]21Cc1ccccc1", "tested on": "A549", "assay": "TNF-alpha release", "conditions": "concentration not given", "quantity": "inhibition", "result": "60 to 80%"}
